Assay results from different studies.
Several values in a cell are separate wells, animals, samples, runs or records. ± gives the spread as reported.
Sequence of UniProt Q00987 (whole entry, looked up): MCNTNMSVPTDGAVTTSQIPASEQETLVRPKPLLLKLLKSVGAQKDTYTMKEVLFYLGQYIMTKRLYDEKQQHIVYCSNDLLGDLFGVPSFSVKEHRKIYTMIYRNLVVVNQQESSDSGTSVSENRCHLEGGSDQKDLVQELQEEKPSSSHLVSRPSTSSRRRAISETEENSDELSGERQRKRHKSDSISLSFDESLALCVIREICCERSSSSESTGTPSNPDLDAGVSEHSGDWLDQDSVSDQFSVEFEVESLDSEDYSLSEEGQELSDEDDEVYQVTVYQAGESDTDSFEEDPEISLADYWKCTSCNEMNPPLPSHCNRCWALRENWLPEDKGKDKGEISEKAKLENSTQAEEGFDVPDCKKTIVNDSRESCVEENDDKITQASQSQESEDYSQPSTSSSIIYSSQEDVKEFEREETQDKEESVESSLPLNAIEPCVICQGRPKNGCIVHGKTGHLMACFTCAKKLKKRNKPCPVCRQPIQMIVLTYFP
Sequence of UniProt P0A988 (whole entry, unmodified, looked up): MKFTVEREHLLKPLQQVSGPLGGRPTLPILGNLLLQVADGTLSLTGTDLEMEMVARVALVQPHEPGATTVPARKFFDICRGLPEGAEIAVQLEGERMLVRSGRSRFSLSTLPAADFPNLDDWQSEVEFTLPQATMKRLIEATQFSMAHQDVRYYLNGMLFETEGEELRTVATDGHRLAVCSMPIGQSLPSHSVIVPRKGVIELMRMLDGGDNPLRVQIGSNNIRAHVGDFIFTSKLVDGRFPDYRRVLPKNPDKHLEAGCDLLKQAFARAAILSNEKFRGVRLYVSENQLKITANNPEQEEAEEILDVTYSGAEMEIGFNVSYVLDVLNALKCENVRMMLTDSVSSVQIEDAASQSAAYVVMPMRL
Sequence of UniProt Q15418 (whole entry, looked up): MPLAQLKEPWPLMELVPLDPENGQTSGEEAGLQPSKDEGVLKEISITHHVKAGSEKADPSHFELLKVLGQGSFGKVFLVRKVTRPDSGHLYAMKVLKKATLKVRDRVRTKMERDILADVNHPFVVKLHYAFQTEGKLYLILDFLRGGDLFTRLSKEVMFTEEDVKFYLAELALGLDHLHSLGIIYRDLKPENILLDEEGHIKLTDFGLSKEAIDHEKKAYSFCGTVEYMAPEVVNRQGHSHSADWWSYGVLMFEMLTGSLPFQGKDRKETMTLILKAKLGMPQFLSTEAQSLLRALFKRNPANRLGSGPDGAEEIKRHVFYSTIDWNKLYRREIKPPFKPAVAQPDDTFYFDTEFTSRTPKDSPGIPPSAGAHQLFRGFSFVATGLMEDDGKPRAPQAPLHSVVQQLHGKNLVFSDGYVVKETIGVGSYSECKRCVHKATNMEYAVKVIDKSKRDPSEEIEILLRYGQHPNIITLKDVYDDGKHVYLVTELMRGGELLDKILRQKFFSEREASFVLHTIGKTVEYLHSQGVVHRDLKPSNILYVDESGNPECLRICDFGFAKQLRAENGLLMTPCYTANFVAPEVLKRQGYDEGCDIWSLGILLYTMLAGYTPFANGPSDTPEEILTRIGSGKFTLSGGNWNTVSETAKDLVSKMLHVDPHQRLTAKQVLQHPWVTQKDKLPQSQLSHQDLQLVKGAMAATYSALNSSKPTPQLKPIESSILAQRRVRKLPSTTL
Sequence of UniProt O00141 (whole entry, looked up): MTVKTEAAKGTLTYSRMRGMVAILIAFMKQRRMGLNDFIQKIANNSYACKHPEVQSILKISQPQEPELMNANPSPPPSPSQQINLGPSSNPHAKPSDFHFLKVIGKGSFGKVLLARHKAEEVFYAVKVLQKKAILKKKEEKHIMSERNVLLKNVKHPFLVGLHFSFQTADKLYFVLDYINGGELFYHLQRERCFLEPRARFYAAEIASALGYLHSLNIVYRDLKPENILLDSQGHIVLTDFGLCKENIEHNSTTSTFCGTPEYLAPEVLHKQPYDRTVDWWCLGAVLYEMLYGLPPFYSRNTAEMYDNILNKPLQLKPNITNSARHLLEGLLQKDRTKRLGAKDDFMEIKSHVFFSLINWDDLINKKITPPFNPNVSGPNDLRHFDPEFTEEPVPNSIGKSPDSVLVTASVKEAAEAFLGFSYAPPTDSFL
Sequence of UniProt P33533 (whole entry, looked up): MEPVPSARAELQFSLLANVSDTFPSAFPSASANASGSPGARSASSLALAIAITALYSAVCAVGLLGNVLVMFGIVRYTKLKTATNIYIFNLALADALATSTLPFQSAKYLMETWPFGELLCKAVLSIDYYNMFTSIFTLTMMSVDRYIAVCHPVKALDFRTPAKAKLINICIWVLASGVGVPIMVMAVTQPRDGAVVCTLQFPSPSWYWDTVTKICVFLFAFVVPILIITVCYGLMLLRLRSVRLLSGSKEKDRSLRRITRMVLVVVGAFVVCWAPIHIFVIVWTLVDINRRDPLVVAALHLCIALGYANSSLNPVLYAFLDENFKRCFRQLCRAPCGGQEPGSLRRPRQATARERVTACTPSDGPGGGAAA
Sequence of UniProt Q9R0P3 (whole entry, looked up): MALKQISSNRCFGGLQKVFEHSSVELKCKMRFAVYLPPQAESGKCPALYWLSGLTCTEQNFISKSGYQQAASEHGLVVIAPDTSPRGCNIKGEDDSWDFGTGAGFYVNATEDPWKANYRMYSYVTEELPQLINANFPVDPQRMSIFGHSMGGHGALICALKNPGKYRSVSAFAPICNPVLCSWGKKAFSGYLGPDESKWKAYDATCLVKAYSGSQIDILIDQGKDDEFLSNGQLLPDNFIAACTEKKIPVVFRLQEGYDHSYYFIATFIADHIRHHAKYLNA
Sequence of UniProt Q14289 (whole entry, looked up): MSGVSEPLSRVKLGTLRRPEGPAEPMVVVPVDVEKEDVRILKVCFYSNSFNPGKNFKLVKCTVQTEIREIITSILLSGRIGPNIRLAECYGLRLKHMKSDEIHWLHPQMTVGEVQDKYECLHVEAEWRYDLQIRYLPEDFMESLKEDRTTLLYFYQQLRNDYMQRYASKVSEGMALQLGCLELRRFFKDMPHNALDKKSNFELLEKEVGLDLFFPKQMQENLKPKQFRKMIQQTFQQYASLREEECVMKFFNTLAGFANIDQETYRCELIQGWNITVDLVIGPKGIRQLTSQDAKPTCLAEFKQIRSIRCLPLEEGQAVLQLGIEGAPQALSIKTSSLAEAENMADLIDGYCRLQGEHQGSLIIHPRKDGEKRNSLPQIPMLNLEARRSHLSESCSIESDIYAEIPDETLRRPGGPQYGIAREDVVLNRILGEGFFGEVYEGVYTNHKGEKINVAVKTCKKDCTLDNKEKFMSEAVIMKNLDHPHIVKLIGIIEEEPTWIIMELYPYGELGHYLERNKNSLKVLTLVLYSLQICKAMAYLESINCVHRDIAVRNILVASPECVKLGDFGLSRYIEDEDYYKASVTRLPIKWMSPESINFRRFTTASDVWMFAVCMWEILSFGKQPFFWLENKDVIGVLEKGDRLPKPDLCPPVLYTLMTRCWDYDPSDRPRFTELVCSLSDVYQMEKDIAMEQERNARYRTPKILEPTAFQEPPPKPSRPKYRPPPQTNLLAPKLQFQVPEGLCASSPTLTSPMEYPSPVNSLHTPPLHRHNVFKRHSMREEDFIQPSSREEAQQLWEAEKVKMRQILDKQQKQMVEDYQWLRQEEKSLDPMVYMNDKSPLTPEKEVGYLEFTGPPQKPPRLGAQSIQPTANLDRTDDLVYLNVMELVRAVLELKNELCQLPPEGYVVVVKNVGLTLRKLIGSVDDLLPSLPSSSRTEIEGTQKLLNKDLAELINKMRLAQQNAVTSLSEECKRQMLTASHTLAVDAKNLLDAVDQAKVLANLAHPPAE
Sequence of UniProt P43235 (whole entry, looked up): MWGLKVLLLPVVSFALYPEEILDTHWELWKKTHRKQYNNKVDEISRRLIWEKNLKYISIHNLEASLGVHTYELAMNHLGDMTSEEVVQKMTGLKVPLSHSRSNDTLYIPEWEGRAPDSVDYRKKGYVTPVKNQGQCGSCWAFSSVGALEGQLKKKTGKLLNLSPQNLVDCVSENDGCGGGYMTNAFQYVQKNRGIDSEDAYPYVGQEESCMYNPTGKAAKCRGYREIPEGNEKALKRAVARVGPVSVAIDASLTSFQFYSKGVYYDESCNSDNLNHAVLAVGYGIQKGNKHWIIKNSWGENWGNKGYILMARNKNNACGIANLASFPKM

| SMILES | tested on | test | system | conditions | how to read | endpoint | result |
| --- | --- | --- | --- | --- | --- | --- | --- |
| CC(C)CC(O)(CC(C)C)c1cn(C(=O)N2CCCC2)nn1 | S-formylglutathione hydrolase (Esd, Mus musculus, UniProt Q9R0P3) | enzyme activity, inhibitor, item: Esd | mouse, brain | i.p., 0.8 mg/kg, 4 h, protein level | reference: vehicle | ratio of ratios | 1.4 |
| CC[C@H](C)[C@@H]1NC(=O)[C@H](CC(C)C)NC(=O)CNC(=O)[C@H](CCCNC(=N)N)NC(=O)[C@H](Cc2c[nH]c3ccccc23)NC(=O)[C@H](CCSC)NC(=O)[C@H](CO)NC(=O)[C@H](CCC(=O)O)NC(=O)[C@H](Cc2ccccc2)NC(=O)[C@H](CC(=O)O)NC(=O)[C@H]([C@@H](C)O)NC(=O)CNC(=O)[C@H](CCC(=O)O)NC(=O)[C@H]([C@@H](C)O)NC(=O)CNC(=O)[C@H](CC(=O)O)NC1=O | MDM2 (Homo sapiens, UniProt Q00987) | MDM2-ligand binding, inhibitor, AlphaLISA competition |  | 50 µM, together with: GST-tagged MDM2 ligand | lower = stronger inhibition | AlphaLISA signal | 1180 a.u. and 1060 a.u. and 1140 a.u. |
| O=C1NC(=O)c2c1c1cc(F)c[n+]3c1c1c2c2cc(O)ccc2[n]1[Ru-4]312([N]=C=S)[S+]3CC[S+]1CC[S+]2CC3 (stereo not shown) | SGK1 (Homo sapiens, UniProt O00141) | enzyme activity |  | 100 nM, human enzyme, together with: 10 µM ATP | reference: untreated | remaining activity | 51% |
| O=C(CF)N[C@H]1[C@H]([C@H](O)[C@H](O)CNC(=O)c2ccc(-c3ccccc3)cc2)O[C@@](OCc2cccc(Cl)c2Cl)(C(=O)O)C[C@@H]1O | CD22 (Homo sapiens, UniProt P20273) | isothermal titration calorimetry |  |  |  | -TΔS | 0.21 ± 0.02 kcal/mol |
| CS(C)(=O)=Nc1ccc(-c2ccc(-c3nc4cc(O[C@@H]5CO[C@H]6[C@@H]5OC[C@H]6O)[nH]c4cc3F)cc2)cc1 | PTK2B (Homo sapiens, UniProt Q14289) | enzyme activity, inhibitor |  | 10 µM |  | inhibition | -8% |
| O=C1NC2(CC2)COc2ncc(F)cc2[C@H]2COCCN2c2ccn3ncc1c3n2 |  |  | Sprague-Dawley rat, male, heart | oral, 20 mg/kg/day, 4 weeks dosing, end of recovery |  | organ-to-body weight ratio | 0.354 ± 0.017% |
| CC(C)[C@H]1NC(=O)C[C@H]2/C=C/CCSSC[C@@H](NC1=O)C(=O)N[C@H](Cc1cccc3ccccc13)C(=O)NCC(=O)O2 | RPS6KA1 (Homo sapiens, UniProt Q15418) | enzyme activity, inhibitor |  | 10 µM |  | inhibition | -1.3% |
| CCCC[C@H]1CNCCN1C[C@@H]1CCCN1C[C@@H](Cc1ccc2ccccc2c1)N1CCN(CCCC2CCCC2)[C@H]([C@H](C)CC)C1 | Oprd1 (Rattus norvegicus, UniProt P33533) | radioligand binding | rat brain membranes | 500 nM, pH 7.5, 25 °C, together with: 2 nM [3H]DPDPE |  | remaining binding | 92% |
| CC#CC(=O)NC[C@H](NC(=O)[C@H](CC1CCCCC1)NC(=O)[C@H](CCC(N)=O)NC(C)=O)C(=O)N[C@@H](CC(C)C)C(=O)N[C@@H](Cc1ccccc1)C(=O)O | Beta sliding clamp (Escherichia coli, UniProt P0A988) | binding, isothermal titration calorimetry |  | 22 °C |  | ΔH | -13.1 kcal/mol |
| CN(C)[C@H]1C[C@@]23CC[C@@]4(O2)C(=CC[C@]2(C)[C@@H](c5ccc6ccncc6c5)CC[C@H]24)C=C3[C@@H](O)[C@@H]1O | MAP3K3 (Homo sapiens, UniProt Q99759) | ATP probe labelling, inhibitor, KiNativ profiling |  | 0.1 µM |  | inhibition | 2.6% |
| C=C(c1ccccc1)[C@@H](N)P(=O)(O)O | PAL1 (Petroselinum crispum, UniProt P24481) | L-Phe deamination, inhibitor, UV steady-state kinetics |  | 50 µM, together with: L-Phe 5 mM |  | reaction rate reduction | 4% |
| CCNC(=S)NN=Cc1c2ccccc2cc2ccccc12.Cc1ccc(C(C)C)cc1.[Cl-].[Cl-].[Ru+2] | Albumin (ALB, Homo sapiens, UniProt P02768) | fluorescence titration, Scatchard |  | 301 K |  | binding constant | 11.4 ± 0.19 10⁴ M⁻¹ |
| CC(C)C[C@H](NC(=O)[C@H]1O[C@@H]1C(=O)O)C(=O)NCCCCN=C(N)N | Cathepsin K (CTSK, Homo sapiens, UniProt P43235) |  |  |  |  | Hill slope | -1.54 |

Some of these lines once more:
| SMILES | tested on | test | system | conditions | how to read | endpoint | result |
| --- | --- | --- | --- | --- | --- | --- | --- |
| CS(C)(=O)=Nc1ccc(-c2ccc(-c3nc4cc(O[C@@H]5CO[C@H]6[C@@H]5OC[C@H]6O)[nH]c4cc3F)cc2)cc1 | PTK2B (Homo sapiens, UniProt Q14289) | enzyme activity, inhibitor |  | 10 µM |  | inhibition | -8% |
